Measured values gathered from unrelated publications.
Parts stem from different laboratories: compare values within a part only. Positions count from the first letter of the parent shown.

Set 1
Target: Protein C-ets-1 (ETS1, Homo sapiens, UniProt P14921, residues 1-441, full length assumed)
Technique: protein-binding microarray
Molecule type: double-stranded DNA, one strand shown
Matrix: in vitro
Concentration: not given
Setting: k-mer, scored over probes, only values ≥0.25
Direction: higher = stronger binding
Endpoint: E-score
Construct (chain): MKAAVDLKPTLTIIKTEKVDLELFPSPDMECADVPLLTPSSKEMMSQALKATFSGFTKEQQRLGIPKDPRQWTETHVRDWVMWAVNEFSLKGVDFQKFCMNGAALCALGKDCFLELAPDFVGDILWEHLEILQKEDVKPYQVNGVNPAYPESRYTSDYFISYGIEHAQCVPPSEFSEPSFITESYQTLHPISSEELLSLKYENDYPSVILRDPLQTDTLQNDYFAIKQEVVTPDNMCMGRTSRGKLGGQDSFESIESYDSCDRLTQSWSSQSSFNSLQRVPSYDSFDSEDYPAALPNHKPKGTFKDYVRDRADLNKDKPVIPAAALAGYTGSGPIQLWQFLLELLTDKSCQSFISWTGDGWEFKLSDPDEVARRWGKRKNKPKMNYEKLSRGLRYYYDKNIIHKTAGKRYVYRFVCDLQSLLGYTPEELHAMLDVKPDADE
AACCGGAT: 0.479
ATCCGATC: 0.285
CGTGTTCC: 0.258
ACGGAAAC: 0.461
CCGCCCCA: 0.275
GAAGAGGA: 0.268
GGGAAACA: 0.328
GGACGGAC: 0.268
CAATCGGA: 0.289
GTAAGGAA: 0.254
CAAGCGGA: 0.377
ATCGCCGG: 0.326
AACGGACG: 0.296
CCTTCCCG: 0.259

Set 2
Target: Interferon regulatory factor 5, full length, phosphomimetic (IRF5, Homo sapiens, UniProt Q13568-2, residues 1-514, K96S/S451D/S453D/S456D/S462D)
Technique: protein-binding microarray
Molecule type: double-stranded DNA, one strand shown
Matrix: in vitro
Concentration: 250 nM
Setting: 60-bp whole probe
Added: salmon DNA 0.4 mg/ml
Reference: random background probes
Direction: higher = stronger binding
Endpoint: log fluorescence
Constant ends, left off below: GCCTAGCAC … GTCTTGATTCGCTTGACGCTGCTG
TCACCTTGAGGTTTTCTCACTGTGCTA: 0.194 z-score
TTAGAACTCAGTATCGATTAGTGCTAG: 6.82 z-score
TTAGGTCTCATTTTCCTTTAGTGCTAG: 0.832 z-score
GACGGTTACGGACTGGGGACGTGCTAG: -0.511 z-score
GACGGTTTCGAAACTGGGGACGTGCTA: 5.66 z-score
TCAGTTTTCTCATTCGTACTGTGCTAG: 1.47 z-score
TTAGGTATCGGGACTGGTTTAGTGCTA: 1.82 z-score
TATTTTTTTGTAATCGAAATGTGCTAG: 1.84 z-score
GGGCACATCTTAACATATGAGTGCTAG: -0.392 z-score
TTAGGTCTCGGGACTGGGTTAGTGCTA: -0.244 z-score
TCATGTTTTTCATTGTTACTGTGCTAG: 1.53 z-score
GACGGTATCGACTTTCGGCACGTGCTA: 6.91 z-score
GACGGTATCGACTTTCAGGACGTGCTA: 3.29 z-score
GACGGTCTAGGTTTCGGGACGTGCTAG: 2.53 z-score
TCATTTCTGAATGTCCTACTGTGCTAG: 1.15 z-score
TTAGGTTTCCTCTTCCTTTAGTGCTAG: 0.7 z-score
TTAGATATCGGCACTGGATTAGTGCTA: 1.47 z-score
GATGGACTGGGGTTTCGGGACGTGCTA: 1.18 z-score
TCAGCATTCGAATTCAGACTGTGCTAG: -0.067 z-score
GAAGAACTGGGGACTGGAGACGTGCTA: -0.613 z-score
GACGGACAGGACTATCGGGACGTGCTA: 0.98 z-score
TTAGTACTGGGTCTCGGTTAGTGCTAG: 0.045 z-score
TTAGGTTTCGACACTGGGTTTGTGCTA: 5.84 z-score

Set 3
Target: Histone acetyltransferase KAT6A, winged helix 2, GST fusion (KAT6A, Homo sapiens, UniProt Q92794, residues 85-181)
Technique: protein binding microarray
Molecule type: double-stranded DNA, one strand shown
Matrix: in vitro
Concentration: not given
Setting: 8-mer, flanks averaged, mean of 2 arrays, mostly near background
Reference: not given
Direction: higher = stronger binding
Endpoint: E-score
Construct (chain): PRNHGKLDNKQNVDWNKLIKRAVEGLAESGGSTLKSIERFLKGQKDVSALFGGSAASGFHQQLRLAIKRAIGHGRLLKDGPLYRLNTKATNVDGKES
CGCCAACG: 0.108
AAGCTCCG: 0.134
ATGTAGAC: -0.103
GGTGCCAC: 0.119
ATCGCGCA: 0.0267
AAAGATCT: -0.0773
CGTCGCAG: 0.264
AGCGCAAG: -0.0742
ACGGCATA: 0.182
ATCCCGTA: -0.00961
ACGTGAAC: -0.323
CCGGACAC: 0.0401
CCACGGGA: 0.0631
AGTTATGA: -0.171
GATGCAAC: 0.00255
TGACGTAA: -0.143
ACACCTAA: -0.161
GCACTCGC: 0.216
GGGAGGAC: -0.0377

Set 4
Target: CCNE2, cyclin fold, Cln2 fusion (human)
Technique: yeast growth competition, sequencing
Matrix: yeast
Setting: strong parent motif
Reference: not given
Direction: higher = stronger binding
Endpoint: normalised enrichment score
Parent: PKN2 docking peptide (human); VSAVRKLDFSDTM; partner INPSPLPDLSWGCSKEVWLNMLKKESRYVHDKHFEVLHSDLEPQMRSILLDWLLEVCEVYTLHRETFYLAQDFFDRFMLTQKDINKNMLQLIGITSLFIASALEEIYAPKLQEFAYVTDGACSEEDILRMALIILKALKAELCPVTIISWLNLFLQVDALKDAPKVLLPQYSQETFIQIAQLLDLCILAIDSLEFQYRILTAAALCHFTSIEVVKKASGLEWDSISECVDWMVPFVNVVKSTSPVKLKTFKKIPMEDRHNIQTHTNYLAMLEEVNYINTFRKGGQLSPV
L7F: 0.0439
R5M: 0.445
T12L: 5
L7P: -0.0851
A3R: 0.333
T12Y: 5.44
T12D: 3.91
S2A: 3.98
A3S: 1.11
R5E: -0.171
K6W: 2.41
D11W: 4.46
F9D: 0.0242
A3Q: 0.37
D8M: 2.57
F9Q: -0.216
V4Q: 1.52
V4Y: 0.982
T12M: 4.83
D11E: 4.43
D8K: 3.06
R5L: 0.13
V4P: 0.581
K6E: 1.08
K6Q: 3.46

Set 5
Target: RING finger protein unkempt homolog, zinc fingers 1-6, GST-SBP tag (UNK, Homo sapiens, UniProt Q9C0B0, residues 30-357)
Technique: RNA Bind-n-Seq
Molecule type: RNA
Matrix: in vitro
Concentration: not given
Setting: RNA with constant flanks, ends assumed
Reference: input RNA pool
Direction: higher = stronger binding
Endpoint: bound/input enrichment
Residues (chain): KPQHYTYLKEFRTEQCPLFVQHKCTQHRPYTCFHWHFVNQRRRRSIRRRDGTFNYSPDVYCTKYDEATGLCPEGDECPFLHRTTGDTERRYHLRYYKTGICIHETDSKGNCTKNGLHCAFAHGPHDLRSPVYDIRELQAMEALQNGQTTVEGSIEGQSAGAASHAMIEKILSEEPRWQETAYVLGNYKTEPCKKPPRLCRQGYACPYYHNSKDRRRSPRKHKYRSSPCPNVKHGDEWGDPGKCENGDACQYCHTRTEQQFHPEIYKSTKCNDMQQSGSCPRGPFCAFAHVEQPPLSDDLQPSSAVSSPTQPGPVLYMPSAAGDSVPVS
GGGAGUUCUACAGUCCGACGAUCUUUCAGCAACUGGUCAAUUUUUCAGAAGGAGGACCAGGCUCUAAUUCUACUGGCAGUGAAGCCGCAUCGAUGUCCUCGCAGCUCCCAGAUACACCCAACAGCAUGGUAGCCAGUCCUAUUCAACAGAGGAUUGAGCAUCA: 0.129 ratio
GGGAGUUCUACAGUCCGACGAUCGGUCAGGCUAAUAAGCCUGAUGAAACUAGUAAAACUAGUAUUCUGGCUGUAUCAGAUGUAUCCCGCAGUAAACCAAGCAUCAAGGCUGUUAUAGUCUCUUCUCCUAAGGCAAAAGCUACACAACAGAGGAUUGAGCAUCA: 0.237 ratio
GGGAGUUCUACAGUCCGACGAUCUCCAAAAAGAUUCAGCAGAUCCAUGUGGUUUCCCAGUUUAAGAUUCUGGUCAGCUUGUCCGAAAAUAACAUUUAUGUCCAUGACCUAUUGACAUUUCAACAAAUCACUACGGUUUCAAAGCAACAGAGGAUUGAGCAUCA: 0.0977 ratio
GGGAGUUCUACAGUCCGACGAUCCAGGAAGAUAUCGAUCCUCAGAAGGUUGCAUUUCUCCUCCACAAACAGUGGACUAUAUACCGUUUAACUCCCUUGUAUAAAUUCUCCUAUUCUAAUCUCAAAGACUAUUCUAGACUUCUACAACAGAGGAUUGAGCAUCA: 0.711 ratio
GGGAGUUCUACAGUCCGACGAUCCUGAACAAAAUUACCAAAAACCUAGGGUUUGGGAUGGGAAUUGAAUUCCGUGAAGGCUCCCCCGUAAUCAAUAGCAAAAAUCAAUACAAACUGAAGAAAGGAAUGGUUUUCAGCAUCAAUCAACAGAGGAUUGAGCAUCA: 7.16 ratio
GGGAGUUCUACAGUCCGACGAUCGGCUUUAAGUCUGUUGGGAAGCCAUAAGCCCUUGAUUCUGCAGCAUGAAAACCUAGAAACCACCGUUGACUUUAUAAAAAGCACGCUACCCAACCUUGGCUUGGUACAGAUGGAAAAGACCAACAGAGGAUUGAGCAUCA: 0.254 ratio
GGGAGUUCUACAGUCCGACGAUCUAUUUUUUAGAACAGCUAUUUGAUUUCUUCUCAAAGUCACUGCUGCCUUCUGAGUUGCCGUCCGCGCCUUCUCCAGCUUCCUGCAGCAUGACAGAAGAGAGAUACAGCAGUUGUUUCAAACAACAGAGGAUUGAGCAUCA: 0.125 ratio
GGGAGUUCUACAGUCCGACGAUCGGCAGUGGCUGGGGAGGUGAGGGAGGGGGGGCAUUCGCUUUUGGGGGCACCUCAGGUGCCCCGGUUUUCCUUUAGGUUUGUUCUAUCCGAGACGCGGGACUCCCGGGGCCCGGCUCAAGUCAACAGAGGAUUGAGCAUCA: 6 ratio
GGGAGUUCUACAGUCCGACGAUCGGGUCCUGCAGGAAGCAGUGUUCUCCUUGGUGCCCGGGGAAACCUCCCAUGUCUGUUUCCUACCGGCCACUUGUUCCUCACGACCAUCCGGCCUGACAAUCAGAAUUCCUAUCUCAUUGCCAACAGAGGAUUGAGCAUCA: 0.191 ratio
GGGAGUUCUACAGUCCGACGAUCGAGAAAUACUUCCAAUUCCAAGAAGAGGGCAAAGAAGGAGAGAACAGAGCAGUUAUCCAUUACCGGGAUGAUGAGACCAUGUAUGUGGAAUCUAAGAAAGACAGAGUCACAGUAGUCUUCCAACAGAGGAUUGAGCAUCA: 0.382 ratio
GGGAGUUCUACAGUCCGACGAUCUUUGGACAGUGCUAUGAGUUUCUUACUCUUCACACAGUGAAAAAGUACUUUCUUCCAAUAACCGAAAUGGUUCCACAGUUUUUAGAAAACUUAACUGAUGAAGAGCUGAAGAAAGAAGCACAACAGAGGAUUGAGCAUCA: 0.262 ratio

Excerpt of the above (set 3):
GGTGCCAC: 0.119
ATGTAGAC: -0.103
ATCGCGCA: 0.0267
AGCGCAAG: -0.0742
CCGGACAC: 0.0401
ACACCTAA: -0.161
GCACTCGC: 0.216
AAAGATCT: -0.0773
GGGAGGAC: -0.0377
AGTTATGA: -0.171
AAGCTCCG: 0.134
GATGCAAC: 0.00255
ACGGCATA: 0.182
CGTCGCAG: 0.264
ATCCCGTA: -0.00961
